Published values of several laboratories.
Protocols differ between the studies behind these lines. Several values in a cell are separate wells, animals, samples, runs or records. Numbers after ± are the reported error.
MAPK8: Mitogen-activated protein kinase 8 (MAPK8, Homo sapiens, UniProt P45983)
PRKCA: Protein kinase C alpha type (PRKCA, Homo sapiens, UniProt P17252)

The chains behind the UniProt entries cited, without tags or fusion partners. Where a name states a change or a piece, a line headed by the entry shows the natural chain unless it says otherwise. Residues count along the entry.
UniProt P45983, whole entry: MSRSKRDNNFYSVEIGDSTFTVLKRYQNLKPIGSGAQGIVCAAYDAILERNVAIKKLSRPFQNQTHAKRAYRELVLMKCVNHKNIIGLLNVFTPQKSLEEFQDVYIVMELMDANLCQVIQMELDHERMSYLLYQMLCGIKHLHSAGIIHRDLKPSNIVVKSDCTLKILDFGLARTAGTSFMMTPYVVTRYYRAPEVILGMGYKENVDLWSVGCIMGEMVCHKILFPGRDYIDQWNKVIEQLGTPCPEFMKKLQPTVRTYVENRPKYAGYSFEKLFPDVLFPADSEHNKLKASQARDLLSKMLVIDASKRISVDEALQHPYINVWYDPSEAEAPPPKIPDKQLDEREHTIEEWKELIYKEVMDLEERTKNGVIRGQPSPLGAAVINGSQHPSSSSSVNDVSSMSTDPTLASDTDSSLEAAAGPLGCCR
UniProt P45983, 1-384 isoform 3: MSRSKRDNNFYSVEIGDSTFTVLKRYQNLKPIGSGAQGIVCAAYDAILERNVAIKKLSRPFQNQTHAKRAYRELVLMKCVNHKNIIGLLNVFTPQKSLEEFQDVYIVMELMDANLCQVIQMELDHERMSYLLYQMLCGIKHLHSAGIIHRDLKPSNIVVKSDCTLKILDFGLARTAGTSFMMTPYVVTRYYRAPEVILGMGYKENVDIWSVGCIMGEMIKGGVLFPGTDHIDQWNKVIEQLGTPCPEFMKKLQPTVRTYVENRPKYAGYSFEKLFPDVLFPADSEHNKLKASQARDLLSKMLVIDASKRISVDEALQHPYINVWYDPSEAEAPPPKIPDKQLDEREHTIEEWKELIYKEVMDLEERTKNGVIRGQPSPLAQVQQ
UniProt Q8TBC4, 2-463 limits assumed: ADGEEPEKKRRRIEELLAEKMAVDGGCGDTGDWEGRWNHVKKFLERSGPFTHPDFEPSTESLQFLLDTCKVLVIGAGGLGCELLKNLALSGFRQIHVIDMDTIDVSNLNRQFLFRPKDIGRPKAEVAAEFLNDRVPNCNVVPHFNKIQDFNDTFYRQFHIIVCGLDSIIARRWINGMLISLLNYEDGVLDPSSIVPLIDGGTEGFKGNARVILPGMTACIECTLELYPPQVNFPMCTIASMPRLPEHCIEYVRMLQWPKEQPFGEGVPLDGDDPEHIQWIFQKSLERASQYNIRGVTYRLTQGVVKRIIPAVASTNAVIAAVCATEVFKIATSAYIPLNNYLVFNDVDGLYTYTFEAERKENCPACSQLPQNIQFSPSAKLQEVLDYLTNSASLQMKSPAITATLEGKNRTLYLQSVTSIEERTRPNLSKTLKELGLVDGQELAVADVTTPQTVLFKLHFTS
UniProt P22756, 31-920 isoform 4 limits assumed: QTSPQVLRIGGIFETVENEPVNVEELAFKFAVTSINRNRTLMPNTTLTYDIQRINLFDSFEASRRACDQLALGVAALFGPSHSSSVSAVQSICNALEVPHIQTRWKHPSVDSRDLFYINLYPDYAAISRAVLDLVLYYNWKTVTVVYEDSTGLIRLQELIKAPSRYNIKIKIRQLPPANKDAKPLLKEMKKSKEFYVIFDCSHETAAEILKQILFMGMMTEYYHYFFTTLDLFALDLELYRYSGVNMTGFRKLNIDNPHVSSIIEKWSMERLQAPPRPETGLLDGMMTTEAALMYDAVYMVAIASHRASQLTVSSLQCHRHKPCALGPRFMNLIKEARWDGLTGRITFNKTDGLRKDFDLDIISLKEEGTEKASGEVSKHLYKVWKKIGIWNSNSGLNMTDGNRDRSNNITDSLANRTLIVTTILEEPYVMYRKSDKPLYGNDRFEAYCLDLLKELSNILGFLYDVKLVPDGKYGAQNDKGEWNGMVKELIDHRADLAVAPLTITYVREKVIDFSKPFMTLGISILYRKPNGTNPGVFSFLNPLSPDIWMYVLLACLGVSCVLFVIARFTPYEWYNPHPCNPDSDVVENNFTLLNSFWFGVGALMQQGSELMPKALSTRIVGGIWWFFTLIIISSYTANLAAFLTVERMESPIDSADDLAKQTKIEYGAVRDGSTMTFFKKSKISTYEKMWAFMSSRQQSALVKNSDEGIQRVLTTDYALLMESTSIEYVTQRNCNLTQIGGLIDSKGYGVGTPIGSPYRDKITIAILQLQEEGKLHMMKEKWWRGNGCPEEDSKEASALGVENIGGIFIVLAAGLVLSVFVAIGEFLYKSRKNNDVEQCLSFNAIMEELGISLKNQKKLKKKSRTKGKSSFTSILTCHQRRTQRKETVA
UniProt Q9EP80, whole entry: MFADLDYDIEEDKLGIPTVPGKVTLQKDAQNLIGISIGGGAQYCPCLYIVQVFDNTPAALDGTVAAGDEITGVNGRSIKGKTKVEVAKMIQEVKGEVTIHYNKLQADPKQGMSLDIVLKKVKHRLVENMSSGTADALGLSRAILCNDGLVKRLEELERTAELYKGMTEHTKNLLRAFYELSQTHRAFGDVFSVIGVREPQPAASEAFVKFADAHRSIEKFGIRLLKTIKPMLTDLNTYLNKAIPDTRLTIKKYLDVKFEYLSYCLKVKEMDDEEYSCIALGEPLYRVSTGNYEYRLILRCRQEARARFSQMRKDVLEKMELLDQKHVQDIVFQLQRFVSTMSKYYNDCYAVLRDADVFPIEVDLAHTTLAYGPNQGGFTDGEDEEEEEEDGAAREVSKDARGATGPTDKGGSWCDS
UniProt Q16539, whole entry: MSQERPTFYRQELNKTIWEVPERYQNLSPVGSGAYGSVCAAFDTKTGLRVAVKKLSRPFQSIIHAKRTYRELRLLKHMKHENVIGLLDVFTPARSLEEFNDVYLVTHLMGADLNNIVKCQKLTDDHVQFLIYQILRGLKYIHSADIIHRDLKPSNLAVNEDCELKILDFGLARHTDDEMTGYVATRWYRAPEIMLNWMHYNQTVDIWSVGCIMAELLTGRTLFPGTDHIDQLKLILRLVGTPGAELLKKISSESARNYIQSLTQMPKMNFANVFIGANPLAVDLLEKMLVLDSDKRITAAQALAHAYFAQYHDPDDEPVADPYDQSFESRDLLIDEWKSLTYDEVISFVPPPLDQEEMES
UniProt P47900, whole entry: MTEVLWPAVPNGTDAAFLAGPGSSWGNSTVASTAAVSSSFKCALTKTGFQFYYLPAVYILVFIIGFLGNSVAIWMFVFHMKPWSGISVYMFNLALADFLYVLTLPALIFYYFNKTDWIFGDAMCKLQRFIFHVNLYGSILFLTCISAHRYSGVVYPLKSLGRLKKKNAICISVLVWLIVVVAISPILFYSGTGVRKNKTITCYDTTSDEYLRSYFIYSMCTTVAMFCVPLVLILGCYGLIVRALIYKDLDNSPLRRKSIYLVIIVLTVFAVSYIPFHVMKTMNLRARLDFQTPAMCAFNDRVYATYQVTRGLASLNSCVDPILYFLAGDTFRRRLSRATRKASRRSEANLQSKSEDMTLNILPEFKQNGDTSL
UniProt Q9R0C9, whole entry: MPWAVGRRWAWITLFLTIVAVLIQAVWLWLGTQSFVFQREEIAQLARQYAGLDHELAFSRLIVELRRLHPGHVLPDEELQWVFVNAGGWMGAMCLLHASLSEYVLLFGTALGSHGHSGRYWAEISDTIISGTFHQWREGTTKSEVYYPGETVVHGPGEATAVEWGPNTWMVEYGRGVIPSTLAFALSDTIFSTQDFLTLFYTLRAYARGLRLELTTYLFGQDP
UniProt Q07440, 1-152 P104K/C113S limits assumed: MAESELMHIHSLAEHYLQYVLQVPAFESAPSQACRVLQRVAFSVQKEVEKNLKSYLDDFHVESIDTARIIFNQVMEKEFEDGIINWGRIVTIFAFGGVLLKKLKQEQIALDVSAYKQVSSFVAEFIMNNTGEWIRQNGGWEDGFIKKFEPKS
UniProt P21917, whole entry: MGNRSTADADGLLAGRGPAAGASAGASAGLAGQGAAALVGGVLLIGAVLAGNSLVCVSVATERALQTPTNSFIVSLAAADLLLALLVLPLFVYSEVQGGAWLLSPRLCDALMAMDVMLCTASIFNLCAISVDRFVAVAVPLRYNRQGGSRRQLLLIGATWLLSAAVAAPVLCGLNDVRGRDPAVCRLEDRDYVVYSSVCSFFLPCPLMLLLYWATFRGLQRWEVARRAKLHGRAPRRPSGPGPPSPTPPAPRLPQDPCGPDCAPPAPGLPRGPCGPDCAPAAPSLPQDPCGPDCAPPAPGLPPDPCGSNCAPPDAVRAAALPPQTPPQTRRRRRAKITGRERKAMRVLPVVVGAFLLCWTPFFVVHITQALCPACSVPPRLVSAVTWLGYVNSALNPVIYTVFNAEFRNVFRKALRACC
UniProt Q13564, 2-534 partner limits assumed: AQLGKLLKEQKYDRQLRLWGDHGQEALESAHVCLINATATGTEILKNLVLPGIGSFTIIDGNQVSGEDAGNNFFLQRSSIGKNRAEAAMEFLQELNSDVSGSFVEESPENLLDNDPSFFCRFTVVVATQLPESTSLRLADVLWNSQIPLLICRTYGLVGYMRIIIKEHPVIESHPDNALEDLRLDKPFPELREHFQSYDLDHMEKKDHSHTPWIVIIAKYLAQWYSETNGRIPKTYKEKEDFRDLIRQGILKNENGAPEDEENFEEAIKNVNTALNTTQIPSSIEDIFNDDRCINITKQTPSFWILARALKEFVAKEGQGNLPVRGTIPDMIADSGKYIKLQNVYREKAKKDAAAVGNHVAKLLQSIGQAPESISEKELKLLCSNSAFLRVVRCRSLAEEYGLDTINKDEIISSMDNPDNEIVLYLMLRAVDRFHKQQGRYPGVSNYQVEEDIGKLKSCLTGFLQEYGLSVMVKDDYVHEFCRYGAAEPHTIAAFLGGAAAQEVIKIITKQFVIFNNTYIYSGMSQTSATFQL

| SMILES | tested on | test | system | conditions | quantity | value |
| --- | --- | --- | --- | --- | --- | --- |
| CC(C)(C)OC(=O)C1=CC(C)(C(=O)c2ccccc2)CCC1=O (stereo not drawn) | MAPK8 | docking peptide binding, competitive inhibitor, fluorescence polarization |  | together with: labelled JIP1 peptide | Ki | 14.5 ± 2.7 µM |
| CC(C)C[C@@H]1NC(=O)N([C@H](c2cn([C@@H](CC(C)C)C(=O)NCCOCCOCCNC(=O)CCC(=O)N[C@@H](CCCCNS(=O)(=O)c3cccc4c(N(C)C)cccc34)C(=O)N[C@H]3CCOC3=O)nn2)C(C)C)C1=O | NEDD8-activating enzyme E1 catalytic subunit, with NAE1 (UBA3, Homo sapiens, UniProt Q8TBC4) | inhibitor, fluorescence polarization competition |  |  | Ki | 6.4 ± 0.3 µM |
| O=C(NCc1ccc(-c2cnco2)cc1)[C@@H]1C[C@@H](O)CN1C(=O)c1cccc(Br)c1 | von Hippel-Lindau disease tumor suppressor, with elongin B, C (VHL, Homo sapiens, UniProt P40337) | inhibitor, fluorescence polarization | VHL-elonginB-elonginC complex | 1% DMSO, together with: FAM-DEALA-Hyp-YIPD peptide | Ki | 23.3 µM |
| CCCCCCCCC(CCCCC=CCCCCC(CCCCCCCC)C(=O)OCC1(CO)CC(=C(C)C)C(=O)O1)C(=O)OCC1(CO)CC(=C(C)C)C(=O)O1 (racemic) | PRKCA | binding, [3H]PDBu competition |  | together with: phosphatidylserine 100 µg/mL | Ki | 0.0174 ± 0.0052 µM |
| COC(=O)[C@@H]1C(c2nc3cc(Cl)ccc3o2)=Cc2cc3c(cc2[C@H]1c1cc(OC)c(OC)c(OC)c1)OCO3 | Leishmania infantum |  | promastigote, iRFP |  | EC50 | 13.9 ± 2.8 µM |
| O=C(O)c1cc(C(=O)N2CCC[C@H]2C(=O)O)cc([C@H]2CCN[C@@H]2C(=O)O)c1 | Glutamate receptor ionotropic, kainate 1 (Rattus norvegicus, UniProt P22756) | binding, radioligand binding | Sf9 membranes | homomeric receptor, together with: [3H]SYM2081 | Ki | 1.44 ± 0.18 µM |
| CCOC(=O)N(CC)C(=O)/C(C#N)=C/c1ccc(Cl)c(Cl)c1 | PRKCA-binding protein, PDZ domain (Pick1, Rattus norvegicus, UniProt Q9EP80) | binding, fluorescence polarization |  | together with: labelled hDAT C-terminal peptide | Ki | 40 ± 3.1 µM |
| COC(=O)C1(C)C=C(C(=O)NCC(C)(C)O)C(=O)CC1 (stereo not drawn) | Mitogen-activated protein kinase 14 (MAPK14, Homo sapiens, UniProt Q16539) | D-peptide displacement, fluorescence polarization |  |  | Ki | 55.9 ± 6.5 µM |
| COC(=O)[C@@]1(C)C=C(C(=O)OCc2cccc(C(=O)Nc3ccc(Nc4nccc(-c5cccnc5)n4)c(C)c3)c2)C(=O)CC1 | MAPK8 | SPR two-step reversible model |  |  | Ki | 0.0022 µM |
| CNc1nc(C#CCCC(=O)O)nc2c1ncn2[C@H]1C[C@H](OP(=O)(O)O)[C@]2(COP(=O)(O)O)C[C@H]12 | P2Y purinoceptor 1 (P2RY1, Homo sapiens, UniProt P47900) | binding, radioligand binding | Sf9 cell membranes | 30 min, 4 °C, together with: iodinated P2Y1 antagonist radioligand | Ki | 0.023 ± 0.003 µM |
| O=C(O)c1cc(C(=O)N[C@@H](Cc2cnc[nH]2)C(=O)O)cc([C@H]2CCN[C@@H]2C(=O)O)c1 | NMDA receptor (rat) | binding, radioligand binding | rat cortical synaptosomes | together with: [3H]CGP39653 | Ki | 5 µM |
| CCCCCCCCCCCCCC[C@@H](O)[C@@H](O)[C@H](CO[C@H]1O[C@H](CO)[C@H](O)[C@H](O)[C@H]1O)NC(=O)CCCCCCCc1ccc(-c2ccccc2)cc1 | Cd1d1, dimeric Ig fusion (Mus musculus, UniProt P11609) | binding, competitive microarray binding |  | together with: printed glycolipid 100 µM | Ki | 13 ± 4.8 µM |
| C/C(=N\OCCN1CCCc2ccccc2C1)c1ccc(C(F)(F)F)cc1 | Sigma non-opioid intracellular receptor 1 (Sigmar1, Rattus norvegicus, UniProt Q9R0C9) | radioligand binding | rat |  | Ki | 0.0483 µM and 0.0448 to 0.0483 µM |
| Cc1ccc(NC(=O)c2cc3ccccc3c(N=Nc3cc(S(=O)(=O)O)ccc3O)c2O)c(C)c1 | Bcl-2-related protein A1 (Mus musculus, UniProt Q07440, C113S/P104K) | binding, inhibitor, fluorescence polarization competition |  | together with: FITC-Noxa peptide, Kd 20 nM | Ki | 1.38 µM |
| O[C@@H](c1ccc(F)cc1)C(F)(F)CCN1CCC(O)(c2ccc(Cl)cc2)CC1 (racemic) | D(4) dopamine receptor (DRD4, Homo sapiens, UniProt P21917) |  |  |  | Ki | 0.384 ± 0.058 µM |
| COc1cc([C@@H]2c3cc4c(cc3[C@H](CC(C)C)[C@H]3COC(=O)[C@H]23)OCO4)cc(OC)c1OC | Leishmania infantum |  | promastigote, iRFP |  | EC50 | 13.8 ± 0.2 µM |
| COC(=O)C1(c2ccccc2)C=C(C(=O)OC(C)(C)C)C(=O)CC1 (stereo not drawn) | MAPK8 | docking peptide binding, competitive inhibitor, fluorescence polarization |  | together with: labelled JIP1 peptide | Ki | 18.8 ± 3.9 µM |
| CCCCCCCCC(CCCCCC=CCCCCCC(CCCCCCCC)C(=O)OCC1(CO)CC(=C(C)C)C(=O)O1)C(=O)OCC1(CO)CC(=C(C)C)C(=O)O1 (racemic) | PRKCA | binding, [3H]PDBu competition |  | together with: phosphatidylserine 100 µg/mL | Ki | 0.05 ± 0.013 µM |

Excerpt of the above:
| SMILES | tested on | test | system | conditions | quantity | value |
| --- | --- | --- | --- | --- | --- | --- |
| CCCCCCCCC(CCCCCC=CCCCCCC(CCCCCCCC)C(=O)OCC1(CO)CC(=C(C)C)C(=O)O1)C(=O)OCC1(CO)CC(=C(C)C)C(=O)O1 (racemic) | PRKCA | binding, [3H]PDBu competition |  | together with: phosphatidylserine 100 µg/mL | Ki | 0.05 ± 0.013 µM |
| CCOC(=O)N(CC)C(=O)/C(C#N)=C/c1ccc(Cl)c(Cl)c1 | PRKCA-binding protein, PDZ domain (Pick1, Rattus norvegicus, UniProt Q9EP80) | binding, fluorescence polarization |  | together with: labelled hDAT C-terminal peptide | Ki | 40 ± 3.1 µM |
| O=C(O)c1cc(C(=O)N[C@@H](Cc2cnc[nH]2)C(=O)O)cc([C@H]2CCN[C@@H]2C(=O)O)c1 | NMDA receptor (rat) | binding, radioligand binding | rat cortical synaptosomes | together with: [3H]CGP39653 | Ki | 5 µM |
